Published values pooled from the literature.
Lines come from different studies, so protocols differ. ± marks the error that the study gave.

SMILES | cell line | test | conditions | how to read | quantity | value
CC(C)C[C@H](NC(=O)[C@H](CC(C)C)NC(=O)[C@H](CC(=O)O)NC(=O)[C@@H](N)CCCCN)C(=O)N[C@@H](CCC(=O)O)C(=O)N[C@@H](CCC(N)=O)C(=O)N[C@@H](CCCCN)C(=O)N[C@@H](CCCNC(=N)N)C(=O)N[C@@H](C)C(=O)N[C@@H](C)C(=O)N[C@H](C(=O)N[C@@H](CC(=O)O)C(=O)N[C@H](C(=O)N[C@@H](Cc1ccc(O)cc1)C(=O)N[C@@H](CS)C(=O)O)[C@@H](C)O)C(C)C | RAW264.7 preosteoclast | ROS production, CM-H2DCFDA fluorescence | 500 min |  | EC50 | 450 nM
CCN(CC)CCCC(C)Nc1cc(-c2ccccc2)nc2cc(OC)ccc12 (stereo not shown) | MDA-MB-468 | cytotoxicity, MTT | 96 h |  | IC50 | 920 ± 64 nM
N#Cc1c(-c2ccc(Cl)cc2Cl)n(-c2nc(-c3ccc(Cl)cc3)c3c(NC(=O)c4ccccc4)nnc-3[nH]2)[nH]c1=O | HCT-116 | SRB |  |  | GI50 | 4300 nM
CN(C)CCNC(=O)c1cc([N+](=O)[O-])cc2ccc(-c3ccccc3)nc12 | MDA-MB-468 | protection from CB1954/NRH toxicity | 3 h, added: 100 µM CB1954 plus 100 µM NRH |  | IC50 | 510 ± 430 nM
CON(C1CC[C@@]2(C)[C@H](CC[C@@H]3[C@@H]2CC[C@]2(C)[C@@H](c4ccc(=O)oc4)CC[C@]32O)C1)C1OCC(O)C(O)C1O (stereo partly shown) | HeLa | cell proliferation, MTT |  |  | IC50 | 26.8 ± 2.3 nM
CCOC(=O)c1c(-c2ccc(Cl)cc2Cl)n(-c2nc(-c3ccc(Cl)cc3)c3c(NC(=O)c4ccccc4)nnc-3[nH]2)[nH]c1=O | 786-0 renal cancer | NCI60 SRB | 10 µM |  | cell growth | 7%
Cc1ccc(C#Cc2cc(-c3nn(-c4nc(C(=O)O)cs4)c(CC4CC4)c3Cc3ccc(S(N)(=O)=O)c(F)c3)ccc2F)s1 | HEK293T | lactate production | 1 h |  | IC50 | 400 nM
Cc1ccc(S(=O)(=O)Nc2ccccc2C(=O)Nc2nc(-c3ccccc3)cs2)cc1 | GALT-deficient patient fibroblasts | measured: 13C galactose 1-phosphate | 25 µM, 24 h pre-incubation, added: 0.05% galactose for 4 h | reference: DMSO | decrease in galactose 1-phosphate | > 30%
Cc1c(Cn2c(C)nc3c(C(=O)O)cc(N4CCOCC4)cc32)cccc1C(F)(F)F | C4-2B enzalutamide-resistant | no effect, Western blot | 5 µM |  | CDK6 protein level | no effect
CC(C)CC(NC(=O)C(Cc1ccccc1)NC(=O)c1cnc(C(=O)NC(Cc2ccccc2)C(=O)NC(CC(C)C)B(O)O)cn1)B(O)O (stereo not shown) | MM.1R | cell viability, CellTiter-Glo | 48 h |  | IC50 | 4.5 nM
CC/C=C\C/C=C\CCC/C=C/C=C/C=C\CCCC(=O)O | HL-60 | flow cytometry | 12.5 µM, 24 h |  | S phase cells | 44.6%
CN(C)CCNC(=O)c1cccc2ccc(-c3ccc(-c4ccccc4)cc3)nc12 | MDA-MB-468 | cytotoxicity, MTT | 96 h |  | IC50 | 1100 ± 720 nM
C=C(C)C(=O)Nc1ccc(-c2c(-c3ccc(Oc4nccc(C)n4)c(F)c3)c3c(N)ncnc3n2C)cc1 | EN | cell growth, CellTiter-Glo | 120 h |  | EC50 | 601 nM
